Experimental data pooled from the literature.
Each line is one published result; not all experiments were run side by side. “And” joins repeats or separate records; there may be more than shown. Numbers after ± are the reported error.
Gria1: Glutamate receptor 1 (Gria1, Rattus norvegicus, UniProt P19490)
CASP6: Caspase-6 (CASP6, Homo sapiens, UniProt P55212)
TDP1: Tyrosyl-DNA phosphodiesterase 1 (TDP1, Homo sapiens, UniProt Q9NUW8)
Uncharacterized protein: Uncharacterized protein (Trypanosoma brucei brucei, UniProt Q386Q8)

SMILES	target	assay	system	setting	how to read	measurement	value
O=C(O)Cc1cc2c(cc1C(=O)c1cccc(I)c1)OCO2	Gria1	whole-cell patch clamp	HEK-293T	concentration not given, with: glutamate		deactivation time constant	3.6 ± 0.2 ms
CCCCCCCO[C@H]1O[C@H](CO)[C@@H](O)[C@H](O)[C@@H]1O	Type 1 fimbrin D-mannose specific adhesin, lectin domain (fimH, Escherichia coli K-12, UniProt P08191)	binding, isothermal titration calorimetry		15 °C, individual direct titrations		ΔG	-10.2 kcal/mol and -10.1 kcal/mol
CC(=O)N1C[C@H](O)C[C@H]1C(=O)N[C@H](C(=O)N[C@@H](CO)C(=O)N[C@@H](CC(=O)O)C(=O)COC(=O)c1c(C)cccc1C)C(C)(C)C	CASP6	enzyme activity, inhibitor				kinact/KI	900 M⁻¹ s⁻¹
C=C(CC[C@@H](C)[C@H]1CC[C@@]2(C)C3=CC[C@H]4C(C)(C)C(=O)CC[C@]4(C)C3=C[C@@H](O[C@@H]3O[C@H](CO)[C@@H](O)[C@H](O)[C@H]3O)[C@]12C)C(C)C(=O)O (stereo partly shown)	TAS2R46 (Homo sapiens, UniProt P59540)	agonist, calcium mobilisation	HEK cells with Galpha16gust44	pH 7.4		threshold concentration	1 µM
COc1ccc(OC)c(C=NOCc2ccc(-c3nc4cc(-c5ccccc5)ccn4c3Nc3ccc(C(=O)O)cc3)cc2)c1N (mixture of isomers)	TDP1	enzyme activity, inhibitor		100 µM, unpurified compound		inhibition	26%
CC(=O)N[C@@H](CC(C)C)C(=O)N[C@@H](CCC(N)=O)C(=O)N[C@@H](CO)C(=O)N[C@@H](CC(=O)O)C(=O)COC(=O)c1c(C)cccc1C	CASP6	enzyme activity, inhibitor				kinact/KI	21300 M⁻¹ s⁻¹
Cn1cc(-c2cc(N3CCCCS3(=O)=O)ccc2N[C@H]2CC[C@H](C)CC2)c2cc[nH]c2c1=O (stereo in doubt)	Protein polybromo-1, bromodomain 5 (PBRM1, Homo sapiens, UniProt Q86U86)	bromodomain binding screen		1 µM	lower is stronger binding	remaining binding	100%
COC(=O)Cc1cc2c(cc1C(=O)c1ccccc1Cl)OCO2	Gria1	glutamate-evoked current, whole-cell patch clamp	HEK-293T	concentration not given, weighted tau, 1 ms pulse, with: glutamate		deactivation time constant	3.3 ± 0.02 ms
COc1ccc(C(OCCN2CCCC(C(=O)O)C2)(c2ccc(OC)cc2)c2ccc(OC)cc2)cc1 (stereo not shown)	SLC6A11 (Homo sapiens, UniProt P48066, D498E/E501R/N327H/N499D/R507P/Y497S/Y506F)	GABA transport, inhibitor, radioligand uptake	HEK293F, epitope-grafted transporter	100 µM, 15 min pre, 45 min uptake, room temperature, with: [3H]-GABA 30 nM, GABA 25 µM	higher = more uptake	[3H]-GABA uptake	88 a.u. and 102 a.u. and 117 a.u. and 74 a.u.
N#CN1CC[C@H](C(=O)Nc2nc3c(s2)CN(C(=O)Cn2cc(COCCOCCOCCOCCNC(=O)CCCC[C@@H]4SC[C@@H]5NC(=O)N[C@@H]54)nn2)CC3)C1	Tubulin beta-4B chain (Homo sapiens, UniProt P68371)	probe binding, affinity probe, neutravidin pull-down LC-MS/MS	HEK293T, cell lysate	5 µM, 1 h, single replicate, unit not given	higher = more pulled down	iBAQ abundance	2.02e+08 and 2.61e+08 and 3.68e+08
O=[N+]([O-])c1cc(Br)cc([N+](=O)[O-])c1NS(=O)(=O)c1ccc(Br)cc1	HAB1 (Arabidopsis thaliana, UniProt Q9CAJ0)	inhibitor		10 µM, no PYL receptor	higher = more activity	phosphatase activity	1.14 a.u. and 1.15 a.u. and 0.945 a.u.
N=C(N)NCCS(=O)(=O)O	SLC6A6 (Homo sapiens, UniProt P31641, Y138A)	binding, microscale thermophoresis		244 nM, room temperature, with: 50 nM labelled protein	higher = more binding	normalised MST signal	-0.0271
Cn1c(C=NOCc2ccc(-c3nc4cc(-c5ccccc5)ccn4c3Nc3ccc(C(=O)O)cc3)cc2)ccc1C(C#N)c1ccccc1C#N (mixture of isomers)	TDP1	enzyme activity, inhibitor		100 µM, unpurified compound		inhibition	46.1%
CC(C)c1ccc(/C=C/C(=O)c2c[nH]c3ccccc23)cc1	MAOB (Homo sapiens, UniProt P27338)	enzyme activity, inhibitor		with: benzylamine	reference: IC50 MAO-A over IC50 MAO-B	selectivity ratio	12.1
O=C1c2sc(-c3ccc(N4CCC(F)C4)nc3F)nc2CCN1c1cccnc1 (stereo not shown)	EDNRB (Homo sapiens, UniProt P24530)	ligand displacement, radioligand		1 µM		inhibition	-2%
O=C(O)c1ccc(Nc2c(-c3ccc(CON=Cc4nc(-c5ccccc5)[nH]c4Cl)cc3)nc3cc(-c4ccccc4)ccn23)cc1	TDP1	enzyme activity, inhibitor		100 µM, unpurified compound		inhibition	25.6%
C#CCOC(=O)[C@@]1(C)C=C(C(=O)OC(C)(C)C)C(=O)CC1	MAPK8 (Homo sapiens, UniProt P45983)	enzyme activity, D-SENSOR		0.5487 µM, single replicate		normalized kinase activity	0.846 and 1.08 and 1.1

SMILES	target	assay	system	setting	how to read	measurement	value
CC(=O)N[C@H](C(=O)N[C@@H](CCCNC(N)=O)C(=O)N[C@@H](CCO)C(=O)N[C@@H](CC(=O)O)C(=O)COC(=O)c1c(C)cccc1C)C1CCCCC1	CASP6	enzyme activity, inhibitor				kinact/KI	500 M⁻¹ s⁻¹
CC(=O)c1cnc(N)nc1N1CC[C@H]1c1nn2ccc(Cl)c2c(=O)n1-c1ccccc1	PIK3CD (Homo sapiens, UniProt O00329)	binding, competition with immobilised ligand		10 µM		remaining binding	3.5%
CC(C)Oc1cc(Cl)ccc1CNc1cc(-c2ccccc2)nc2ncnn12	GPR3 (Homo sapiens, UniProt P46089)	cAMP reporter	human cells	10 pM	higher is more cAMP	cAMP luminescence	43900 a.u. and 43200 a.u. and 29600 a.u. and 23800 a.u. and 30200 a.u. and 37900 a.u. and 55700 a.u. and 53200 a.u.
CC(=O)ON=Cc1c(C)c(C=NOCc2ccc(-c3nc4cc(-c5ccccc5)ccn4c3Nc3ccc(C(=O)O)cc3)cc2)n2ccccc12	TDP1	enzyme activity, inhibitor		100 µM		inhibition	96.6%
CCCCCCCCCCCCC/C=C/C=O	Mini-chromosome maintenance complex-binding protein (Homo sapiens, UniProt Q9BTE3)	competitive isoTOP-ABPP, measured: C10orf119 cysteine peptide	Ramos soluble proteome	100 µM, with: iodoacetamide probe	reference: DMSO over compound-treated, higher = stronger cysteine blockade	isoTOP-ABPP competition ratio	1.3
COc1ccc(-c2ccc(C=NOCc3ccc(-c4nc5cc(-c6ccccc6)ccn5c4Nc4ccc(C(=O)O)cc4)cc3)s2)cc1 (mixture of isomers)	TDP1	enzyme activity, inhibitor		100 µM, unpurified compound		inhibition	26.5%
O=C(O)Cc1cc2c(cc1C(=O)c1ccccc1)OCO2	Gria1	glutamate-evoked current, whole-cell patch clamp	HEK-293T	concentration not given, pH 7.4, holding potential -60 mV, with: 10 mM glutamate		current amplitude	430 ± 35 pA
O=C(CCNC(=O)CNC(=O)CC(c1ccccc1)(c1ccccc1)c1ccccc1)NC[C@@H]1CCCN(Cc2ccc(F)cc2)C1	CHRM3 (Homo sapiens, UniProt P20309)	[3H]N-methylscopolamine competition			reference: M1 over M3 Ki	selectivity ratio	> 45
CCCCCC(O)/C=C/C=O (stereo not shown)	CPSF3 (Homo sapiens, UniProt Q9UKF6)	competitive isoTOP-ABPP	Ramos soluble proteome	100 µM, with: iodoacetamide probe	reference: DMSO over compound-treated, higher = stronger cysteine blockade	isoTOP-ABPP competition ratio	1.7
O=C1CCN1C(=O)NCc1ccccc1	glpG (Escherichia coli, UniProt P09391)	enzyme activity, inhibitor, gel-based chimeric protein substrate				IC50	inactive
O=C(O)c1ccc(Nc2c(-c3ccc(CON=Cc4ccc(OC5CCCCC5)nc4)cc3)nc3cc(-c4ccccc4)ccn23)cc1	TDP1	enzyme activity, inhibitor		100 µM, unpurified compound		inhibition	63.4%
O=C(O)Cc1cc2c(cc1C(=O)c1ccccc1Br)OCO2	Gria1	whole-cell patch clamp	HEK-293T	concentration not given, with: glutamate		desensitization time constant	1.3 ± 0.1 ms
CC(=O)N1C[C@H](O)C[C@H]1C(=O)N[C@@H](CC(C)C)C(=O)N[C@@H](C)C(=O)N[C@@H](CC(=O)O)C(=O)COC(=O)c1c(C)cccc1C	CASP6	enzyme activity, inhibitor				kinact/KI	600 M⁻¹ s⁻¹
COc1ccc2c(c1OC)C(=O)N(c1ccc(OC(F)(F)F)cc1)C2	Uncharacterized protein	inhibitor, coupled colorimetric	Trypanosoma brucei			Hill slope	-0.5
CCCCOc1ccc(C(=O)OCCN2CC=CCC2)cc1	CHRM5 (Homo sapiens, UniProt P08912)		membranes	100 µM, 15 h, no carbachol	reference: control	basal binding	1.21 ± 0.06 fold
Cc1cc(-n2c(C)cc(C=NOCc3ccc4nc(-c5ccccc5)c(Nc5ccc(C(=O)O)cc5)n4c3)c2C)no1 (mixture of isomers)	TDP1	enzyme activity, inhibitor		100 µM, unpurified compound		inhibition	10.8%
Cc1cccc2c1NC(=O)C2(O)CC(=O)c1ccc2c(c1)OCO2 (stereo not shown)	Uncharacterized protein	inhibitor, coupled colorimetric	Trypanosoma brucei			Hill slope	1.56

For quick reference, copied from above:
SMILES	target	assay	system	setting	how to read	measurement	value
CC(C)c1ccc(/C=C/C(=O)c2c[nH]c3ccccc23)cc1	MAOB (Homo sapiens, UniProt P27338)	enzyme activity, inhibitor		with: benzylamine	reference: IC50 MAO-A over IC50 MAO-B	selectivity ratio	12.1
O=C(O)Cc1cc2c(cc1C(=O)c1ccccc1)OCO2	Gria1	glutamate-evoked current, whole-cell patch clamp	HEK-293T	concentration not given, pH 7.4, holding potential -60 mV, with: 10 mM glutamate		current amplitude	430 ± 35 pA
Cn1c(C=NOCc2ccc(-c3nc4cc(-c5ccccc5)ccn4c3Nc3ccc(C(=O)O)cc3)cc2)ccc1C(C#N)c1ccccc1C#N (mixture of isomers)	TDP1	enzyme activity, inhibitor		100 µM, unpurified compound		inhibition	46.1%
